Measurements collected from several papers.
Compare with care: the assays were run in different laboratories.
Target: Cytochrome P450 2C9 (CYP2C9, Homo sapiens, UniProt P11712)
UniProt P11712, sequence (whole entry, looked up): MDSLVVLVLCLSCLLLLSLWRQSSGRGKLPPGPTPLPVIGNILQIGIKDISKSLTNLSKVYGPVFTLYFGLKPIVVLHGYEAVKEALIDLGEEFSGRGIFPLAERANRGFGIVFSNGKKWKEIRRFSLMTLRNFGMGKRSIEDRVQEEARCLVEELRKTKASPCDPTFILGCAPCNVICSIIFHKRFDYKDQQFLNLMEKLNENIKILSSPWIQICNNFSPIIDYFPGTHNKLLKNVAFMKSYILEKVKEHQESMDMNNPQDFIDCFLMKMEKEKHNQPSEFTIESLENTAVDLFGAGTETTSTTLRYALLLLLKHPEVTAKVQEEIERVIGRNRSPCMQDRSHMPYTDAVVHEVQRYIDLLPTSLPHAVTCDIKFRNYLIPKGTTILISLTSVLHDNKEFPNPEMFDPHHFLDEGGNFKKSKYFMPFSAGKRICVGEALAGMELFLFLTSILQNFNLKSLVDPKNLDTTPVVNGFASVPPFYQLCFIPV

N=C(N)SCc1ccccc1CSC(=N)N — IC50 (enzyme activity, inhibitor): > 10 µM
C[C@H]1CN(C(=O)c2cn(-c3ccnc(N)n3)c3cc(C#CC4(O)CCCCC4)ccc23)CCN1 — IC50 (10 min): > 50 µM
Cc1[nH]nc2c1N=C(c1ccccc1Cl)c1cnc(N3CCOCC3)cc1N2 — IC50 (enzyme activity, inhibitor; human, liver microsomes): 4.72 µM
O=C(NC1CCC(F)(F)CC1)C(c1cncnc1)N(C(=O)C(F)Cl)c1ccc(OC(F)(F)F)cc1 (centres unmarked) — IC50 (enzyme activity, inhibitor; 10 (unit not given)): 36.6 µM
C=C(NC(=O)c1csc(-c2nc3c(cc2O)-c2nc(cs2)C(=O)NC(C(C)O)C(=O)NC(=C(C)OC)c2nc(cs2)C(=O)NC2c4nc(cs4)C(=O)NC(COC(=O)c4c5c6c(cccc6n4O)COC(=O)C(OC4CC(C)(O)C(N(C)C)C(C)O4)C2OC5)c2nc-3cs2)n1)C(N)=O (centres unmarked) — IC50 (enzyme activity, inhibitor; human, liver microsomes; pH 7.4): > 50 µM
CC(C)(C)n1ncc2c(=O)n(Cc3cccc(F)c3)c(NCc3ccc(F)cn3)nc21 — IC50 (enzyme activity, inhibitor): 7.93 µM
CCC1(CC)CC(=O)N(C2c3cc(C(=O)NC4c5ccccc5CC4O)ccc3OC2(C)COC)C(=N)N1 (centres unmarked) — IC50 (enzyme activity, inhibitor): > 20 µM
O=C(c1ccc(-c2cccc(C(F)(F)F)c2)cc1)N1CCN(c2ncccn2)CC1 — IC50 (enzyme activity, inhibitor): 8 µM
OCC1OC(n2cnc3c(NCc4ccc(Br)s4)ncnc32)C(O)C1O (centres unmarked) — IC50 (enzyme activity, inhibitor, fluorescence; pH 7.4): 17.9 µM
CCC1(CC)CC(=O)N(C2CCOc3ccc(C(=O)NC4CC(C)(C)Oc5ccccc54)cc32)C(=N)N1 (centres unmarked) — IC50 (enzyme activity, inhibitor): > 20 µM
COc1ccc2c(c1OC)O[C@H]1c3ccc(O)cc3OC[C@@H]21 — IC50 (enzyme activity, inhibitor; human, liver microsomes; 15 min): 38.7 µM

Excerpt of the above:
O=C(NC1CCC(F)(F)CC1)C(c1cncnc1)N(C(=O)C(F)Cl)c1ccc(OC(F)(F)F)cc1 (centres unmarked) — IC50 (enzyme activity, inhibitor; 10 (unit not given)): 36.6 µM
